{"data": "Published values from different studies", "note": "Numbered parts are unrelated; each lists some results of a single study."}
{"data": "Series 1", "cell line": "HEK-293T", "effect on": "pseudovirus infection", "method": "FDA-approved drug library screen", "organism": "VSV pseudotyped with SARS-CoV-2 spike", "tested at": "10 µM", "time": "16 h", "reference": "vehicle-treated"}
{"SMILES": "Cc1noc(NS(=O)(=O)c2ccc(N)cc2)c1C", "GFP-positive cells [%]": 118}
{"SMILES": "CCCCCCOC(=O)N=C(N)c1ccc(NCc2nc3cc(C(=O)N(CCC(=O)OCC)c4ccccn4)ccc3n2C)cc1", "GFP-positive cells [%]": 73.5}
{"SMILES": "COc1cc(Nc2c(C#N)cnc3cc(OCCCN4CCN(C)CC4)c(OC)cc23)c(Cl)cc1Cl", "GFP-positive cells [%]": 45.5}
{"data": "Series 2", "target": "Replicase polyprotein 1ab, nsp13 helicase (rep, Severe acute respiratory syndrome coronavirus 2, UniProt P0DTD1)", "action": "inhibitor", "tested at": "20 µM"}
{"Structure (SMILES)": "Cc1ccc(NC(=O)Nc2cc(C(F)(F)F)ccc2F)cc1Nc1ccc2c(c1)NC(=O)/C2=C\\c1ccc[nH]1", "inhibition [%]": -0.91}
{"Structure (SMILES)": "Cc1nc(NC(=O)N2CCC[C@H]2C(N)=O)sc1-c1ccnc(C(C)(C)C(F)(F)F)c1", "inhibition [%]": -2.71}
{"Structure (SMILES)": "CNc1nc(-c2ccc3c(N)n[nH]c3c2)cc(N2C[C@@H](C(=O)NC3CCCCC3)CC[C@H]2C)n1", "inhibition [%]": 5.22}
{"Structure (SMILES)": "CC(O)c1cc(C(=O)N[C@@H](C)Cn2ccc(-c3ccc(C#N)c(Cl)c3)n2)n[nH]1 (stereo partly shown)", "inhibition [%]": 1.42}
{"Structure (SMILES)": "COc1ccc(Cl)c(Nc2nc3ccccc3nc2NS(=O)(=O)c2cccc(NC(=O)C(C)(C)N)c2)c1", "inhibition [%]": 5.26}
{"Structure (SMILES)": "CCCCCCCCCC(=O)OCCN1CCN(CCCN2c3ccccc3Sc3ccc(C(F)(F)F)cc32)CC1", "inhibition [%]": -3.15}
{"Structure (SMILES)": "COc1ccc(-c2nc(-c3ccc(-c4cccc(Cl)c4)o3)[nH]c2-c2ccc(OC)cc2)cc1", "inhibition [%]": -1.39}
{"Structure (SMILES)": "O=c1[nH]c(=O)n([C@H]2C[C@H](O)[C@@H](CO)O2)cc1F", "inhibition [%]": 0.41}
{"Structure (SMILES)": "CCO[C@@H](Cc1ccc(OCCn2c(C)ccc2-c2ccc(SC)cc2)cc1)C(=O)O", "inhibition [%]": 45.4}
{"Structure (SMILES)": "C=C(NC(=O)C(=C)NC(=O)c1csc(C2=N[C@@H]3c4csc(n4)[C@H]4NC(=O)c5csc(n5)[C@H]([C@](C)(O)[C@@H](C)O)NC(=O)[C@H]5CSC(=N5)/C(=C/C)NC(=O)[C@H]([C@@H](C)O)NC(=O)c5csc(n5)[C@]3(CC2)NC(=O)[C@H](C)NC(=O)C(=C)NC(=O)[C@H](C)NC(=O)[C@H]([C@@H](C)CC)N[C@@H]2C=Cc3c([C@H](C)O)cc(nc3[C@H]2O)C(=O)O[C@@H]4C)n1)C(N)=O", "inhibition [%]": 0.16}
{"Structure (SMILES)": "Cc1c(N)nc([C@H](CC(N)=O)NC[C@H](N)C(N)=O)nc1C(=O)N[C@H](C(=O)N[C@H](C)[C@@H](O)[C@H](C)C(=O)N[C@H](C(=O)NCCc1nc(-c2nc(C(=O)NCCCNCCCCN)cs2)cs1)[C@@H](C)O)[C@@H](O[C@@H]1O[C@@H](CO)[C@@H](O)[C@H](O)[C@@H]1O[C@@H]1O[C@H](CO)[C@@H](O)[C@H](OC(N)=O)[C@@H]1O)c1cnc[nH]1", "inhibition [%]": 6.68}
{"Structure (SMILES)": "COc1cc(OC)c(/C=C/S(=O)(=O)Cc2ccc(OC)c(OP(=O)(O)O)c2)c(OC)c1", "inhibition [%]": -3.12}
{"Structure (SMILES)": "C[C@H]1O[C@@H](O[C@H]2[C@@H](O)C[C@H](O[C@H]3[C@@H](O)C[C@H](O[C@H]4CC[C@@]5(C)[C@H](CC[C@@H]6[C@@H]5C[C@@H](O)[C@]5(C)[C@@H](C7=CC(=O)OC7)CC[C@]65O)C4)O[C@@H]3C)O[C@@H]2C)C[C@H](O)[C@@H]1O", "inhibition [%]": 7.31}
{"Structure (SMILES)": "N#CN=C(NCCCCCCOc1ccc(Cl)cc1)Nc1ccncc1", "inhibition [%]": 3.03}
{"Structure (SMILES)": "Fc1ccccc1CNCc1ccc(-c2ccnc3[nH]ccc23)cc1", "inhibition [%]": 2.2}
{"Structure (SMILES)": "O=c1[nH]c2ccccc2n1CCCN1CCN(C(c2ccccc2)c2ccccc2)CC1", "inhibition [%]": 11.2}
{"Structure (SMILES)": "Cc1ccc2c(c1)C1(CCN(CCc3nc(-c4ccccc4)oc3C)CC1)OC(=O)N2", "inhibition [%]": -0.67}
{"Structure (SMILES)": "CN[C@H](CC(C)C)C(=O)N[C@H]1C(=O)N[C@@H](CC(N)=O)C(=O)N[C@H]2C(=O)N[C@H]3C(=O)N[C@H](C(=O)N[C@H](C(=O)O)c4cc(O)cc(O)c4-c4cc3ccc4O)[C@H](O[C@H]3C[C@](C)(N)[C@@H](O)[C@H](C)O3)c3ccc(c(Cl)c3)Oc3cc2cc(c3O[C@@H]2O[C@H](CO)[C@@H](O)[C@H](O)[C@H]2O[C@H]2C[C@](C)(NCc3ccc(-c4ccc(Cl)cc4)cc3)[C@@H](O)[C@H](C)O2)Oc2ccc(cc2Cl)[C@H]1O", "inhibition [%]": 89.3}
{"data": "Series 3", "target": "Histone acetyltransferase KAT6A, winged helix 1, GST fusion (KAT6A, Homo sapiens, UniProt Q92794, residues 1-85)", "method": "protein binding microarray", "form": "double-stranded DNA, one strand shown", "medium": "in vitro", "tested at": "not given", "setting": "8-mer, flanks averaged, mean of 2 arrays, mostly near background", "reference": "not given", "direction": "higher = stronger binding", "Construct (chain)": "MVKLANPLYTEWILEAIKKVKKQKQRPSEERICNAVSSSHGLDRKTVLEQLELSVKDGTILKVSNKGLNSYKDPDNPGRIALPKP"}
{"Sequence": "CAATTTGG", "E-score": -0.203}
{"Sequence": "ATCCATGG", "E-score": -0.0036}
{"Sequence": "AACCAAAC", "E-score": -0.00436}
{"Sequence": "CTCTCTCA", "E-score": -0.274}
{"Sequence": "CGACACTA", "E-score": 0.00215}
{"Sequence": "AAAATGAG", "E-score": -0.149}
{"Sequence": "CACCATAG", "E-score": -0.227}
{"Sequence": "CAGCGTCC", "E-score": 0.111}
{"data": "Series 4", "target": "Interferon regulatory factor 7, full length, phosphomimetic (IRF7, Homo sapiens, UniProt Q92985, residues 1-503, S471D/S472D/S475D/S476D/S477D/S483D/S484D/S487D)", "method": "protein-binding microarray", "form": "double-stranded DNA, one strand shown", "medium": "in vitro", "tested at": "2200 nM top", "setting": "60-bp whole probe", "with": "salmon DNA 0.4 mg/ml", "reference": "random background probes", "direction": "higher = stronger binding", "all sequences stand within": "GCCTAGCAC … GTCTTGATTCGCTTGACGCTGCTG", "Target sequence (chain)": "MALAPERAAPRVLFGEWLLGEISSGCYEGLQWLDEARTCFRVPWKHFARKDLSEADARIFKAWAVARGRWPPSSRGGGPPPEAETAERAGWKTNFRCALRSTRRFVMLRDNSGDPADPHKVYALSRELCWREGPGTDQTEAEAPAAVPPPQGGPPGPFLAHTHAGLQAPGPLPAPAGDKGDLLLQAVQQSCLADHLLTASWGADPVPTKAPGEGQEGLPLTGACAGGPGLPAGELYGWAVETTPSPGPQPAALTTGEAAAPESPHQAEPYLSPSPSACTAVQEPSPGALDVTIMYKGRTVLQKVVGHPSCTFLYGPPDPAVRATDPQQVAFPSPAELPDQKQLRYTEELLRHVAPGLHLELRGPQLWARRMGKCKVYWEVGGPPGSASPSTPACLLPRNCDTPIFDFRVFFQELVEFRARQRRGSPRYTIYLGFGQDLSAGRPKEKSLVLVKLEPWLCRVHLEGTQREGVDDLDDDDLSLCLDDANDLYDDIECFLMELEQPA"}
{"Sequence": "GACTTTTTAGATTTTTTTTCGTGCTAG", "fitted relative affinity [z-score]": 1.17}
{"Sequence": "GACGGATTGCTTATCCTGACGTGCTAG", "fitted relative affinity [z-score]": 0.782}
{"Sequence": "TCAAGTTTTCCTATGTCACTGTGCTAG", "fitted relative affinity [z-score]": 1.81}
{"Sequence": "TCATGTGTAGGTCTTAAACTGTGCTAG", "fitted relative affinity [z-score]": -0.0683}
{"Sequence": "TTAGATATCGGGACTGGATTTGTGCTA", "fitted relative affinity [z-score]": -0.0954}
{"Sequence": "TTCACTTTAAATTAGACTTAGTGCTAG", "fitted relative affinity [z-score]": 0.335}
{"Sequence": "GACGGGTTCCTACTGCTGACGTGCTAG", "fitted relative affinity [z-score]": 0.573}
{"Sequence": "TAAGATTTCAGTTTCGATTAGTGCTAG", "fitted relative affinity [z-score]": 8.03}
{"data": "Series 5", "target": "Replicase polyprotein 1ab, main protease (rep, Severe acute respiratory syndrome coronavirus 2, UniProt P0DTD1)", "effect on": "enzyme activity", "action": "inhibitor", "tested at": "20 µM", "setting": "primary screen"}
{"Compound": "Cc1nc(=O)c2c([nH]1)CCSC2", "inhibition": "68.1%"}
{"Compound": "Oc1ccc2ccccc2c1SSc1c(O)ccc2ccccc12", "inhibition": "91.3%"}
{"Compound": "Sc1nnc(-c2ccccc2Cl)o1", "inhibition": "67%"}
